Published values gathered from unrelated publications.
A part holds a random share of what one study measured.
UniProt P48431, sequence (19-118, looked up): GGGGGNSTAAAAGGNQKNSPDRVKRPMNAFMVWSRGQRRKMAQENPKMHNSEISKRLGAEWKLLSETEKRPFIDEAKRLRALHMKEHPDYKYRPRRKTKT
UniProt P18846, sequence (whole entry, looked up): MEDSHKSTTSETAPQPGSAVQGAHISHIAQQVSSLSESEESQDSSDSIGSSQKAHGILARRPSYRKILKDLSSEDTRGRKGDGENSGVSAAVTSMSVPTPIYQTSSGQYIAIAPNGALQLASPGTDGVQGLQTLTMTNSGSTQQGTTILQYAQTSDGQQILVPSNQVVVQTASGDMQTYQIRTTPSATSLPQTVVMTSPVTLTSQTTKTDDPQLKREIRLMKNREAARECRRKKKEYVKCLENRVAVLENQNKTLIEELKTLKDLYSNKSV
UniProt P28147, sequence (whole entry, looked up): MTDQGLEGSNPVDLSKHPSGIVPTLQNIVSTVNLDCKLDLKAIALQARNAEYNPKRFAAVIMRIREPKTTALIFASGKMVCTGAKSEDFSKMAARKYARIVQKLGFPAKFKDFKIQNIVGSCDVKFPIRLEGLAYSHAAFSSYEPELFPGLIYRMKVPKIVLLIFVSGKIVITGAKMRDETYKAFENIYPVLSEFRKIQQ

Series 1 — cell line: HEK-293T/ACE2; effect on: pseudovirus infection; organism: VSV pseudotyped with SARS-CoV-2 spike; tested at: concentration not given; reference: vehicle-treated; measurement: GFP-positive cells
CNC[C@H](O)[C@@H](O)[C@H](O)[C@H](O)CO.CNC[C@H](O)[C@@H](O)[C@H](O)[C@H](O)CO.C[C@@H](O[C@H]1OCCN(Cc2nn(P(=O)(O)O)c(=O)[nH]2)[C@H]1c1ccc(F)cc1)c1cc(C(F)(F)F)cc(C(F)(F)F)c1: 62.5%
CS(=O)(=O)c1ccc(C(=O)Nc2ccc(Cl)c(-c3ccccn3)c2)c(Cl)c1: 18.9%
Br.Cc1ccc(Sc2ccccc2N2CCNCC2)c(C)c1: 37.2%
CCCCCCCCCC(=O)N[C@@H](Cc1c[nH]c2ccccc12)C(=O)N[C@H](CC(N)=O)C(=O)N[C@@H](CC(=O)O)C(=O)N[C@@H]1C(=O)NCC(=O)N[C@@H](CCCN)C(=O)N[C@@H](CC(=O)O)C(=O)N[C@H](C)C(=O)N[C@@H](CC(=O)O)C(=O)NCC(=O)N[C@H](CO)C(=O)N[C@@H]([C@H](C)CC(=O)O)C(=O)N[C@@H](CC(=O)c2ccccc2N)C(=O)O[C@@H]1C: 89%
C[C@@H](O)[C@H]1C(=O)N2C(C(=O)O)=C(S[C@@H]3CN[C@H](CNS(N)(=O)=O)C3)[C@H](C)[C@H]12.O: 92.7%

Series 2 — technique: RNA Bind-n-Seq; form: RNA; sample: in vitro; tested at: 20 nM; setting: 6-mer, flanks averaged, single round; with: 150 mM KCl; reference: input library; direction: higher = stronger binding; measurement: 6-mer enrichment (R)
Target: TAR DNA-binding protein 43, full length, His tag (TARDBP, Homo sapiens, UniProt Q13148, residues 1-414)
GAGACA: 0.944
CGGUUU: 0.679
UAUGCC: 0.667
GUUUCU: 0.619
AGUUAU: 0.623
AACUCC: 0.672
AUGAUU: 0.646

Series 3 — effect on: enzyme activity; tested at: 20 µM; measurement: inhibition
SMILES: O=C(c1ccc(Cl)cc1)c1cc([N+](=O)[O-])ccc1N1CCOCC1
Target: Replicase polyprotein 1ab, main protease (rep, Severe acute respiratory syndrome coronavirus 2, UniProt P0DTD1)
inhibitor; hit confirmation: 83.6%
inhibitor; primary screen: 63.2%
with DTT: 60.3%

Series 4 — action: inhibitor; tested at: 20 µM; measurement: inhibition
Target: Replicase polyprotein 1ab, nsp13 helicase (rep, Severe acute respiratory syndrome coronavirus 2, UniProt P0DTD1)
COc1ccccc1N1CCN(CC(O)COc2cccc3ccccc23)CC1 (stereo not shown): 2.62%
Cc1ccc(NC(=O)CCCCCC(=O)Nc2ccccc2N)cc1: 2.69%
CN(C)C(=O)COC(=O)Cc1ccc(OC(=O)c2ccc(NC(=N)N)cc2)cc1: 4.11%
Cc1cc(C)cc(C(=O)NOCCCCCC(=O)NO)c1: 7.38%
Cn1ncnc1[C@H]1c2n[nH]c(=O)c3cc(F)cc(c23)N[C@@H]1c1ccc(F)cc1: 0.36%
CCn1nc(C)c2c1C(c1ccccc1)=NCC(=O)N2: 0.51%
Cc1ccccc1CN1C(=O)C2=C(CCN(Cc3ccccc3)C2)N2CCN=C12: 2.71%
NC(=O)N/N=C/c1ccc([N+](=O)[O-])o1: 1.69%
CC(=O)Nc1c(I)cc(I)c(C(=O)O)c1I: 0.81%
COc1ccc(-c2cc(=O)c3c(OC)c(OC)c(OC)c(OC)c3o2)cc1: 2.57%
Cc1ccc(S(N)(=O)=O)cc1: 3.13%
CCOc1ccc(NC(=O)CC(C)O)cc1 (stereo not shown): 5.57%
NC(=S)N/N=C/c1ncccc1N: -0.38%
CCc1cc2c(c(CC)n1)CCC(=O)N2Cc1ccc(-c2ccccc2-c2nn[nH]n2)cc1: 10.1%
O=C(OCCN1CCOCC1)c1cccnc1Nc1cccc(C(F)(F)F)c1: 3.09%
Oc1cc(O)c2c(c1)O[C@H](c1ccc(O)c(O)c1)[C@H](O)[C@H]2c1c(O)cc(O)c2c1O[C@H](c1ccc(O)c(O)c1)[C@H](O)C2: 15.9%
Cc1ccc(C)c(OCCCC(C)(C)C(=O)O)c1: 7.68%
C[C@@H]1Cc2c([nH]c3ccccc23)[C@@H](c2c(F)cc(/C=C/C(=O)O)cc2F)N1CC(C)(C)F: 11.8%
Cc1csc(NC(=O)CSc2ccc(-c3ccccc3)nn2)n1: 1.96%
CCCCc1ncc(/C=C(\Cc2cccs2)C(=O)O)n1Cc1ccc(C(=O)O)cc1: -1.48%
N#CCC(=O)NN: 2.38%
CCN1CCC[C@H]1CNC(=O)c1c(OC)ccc(Br)c1OC: 1.81%
C/C(=C(\CCOP(=O)(O)O)SC(=O)c1ccccc1)N(C=O)Cc1cnc(C)nc1N: 0.37%
CC(=O)OC[C@H](N)C(=O)O: -17.3%
CC(CCc1ccccc1)NCC(O)c1ccc(O)c(C(N)=O)c1 (stereo not shown): -0.63%

Series 5 — technique: RNA Bind-n-Seq; form: RNA; sample: in vitro; tested at: not given; setting: RNA with constant flanks, ends assumed; reference: input RNA pool; direction: higher = stronger binding; measurement: bound/input enrichment
Target: RING finger protein unkempt homolog, zinc fingers 1-6, GST-SBP tag (UNK, Homo sapiens, UniProt Q9C0B0, residues 30-357)
Construct (chain): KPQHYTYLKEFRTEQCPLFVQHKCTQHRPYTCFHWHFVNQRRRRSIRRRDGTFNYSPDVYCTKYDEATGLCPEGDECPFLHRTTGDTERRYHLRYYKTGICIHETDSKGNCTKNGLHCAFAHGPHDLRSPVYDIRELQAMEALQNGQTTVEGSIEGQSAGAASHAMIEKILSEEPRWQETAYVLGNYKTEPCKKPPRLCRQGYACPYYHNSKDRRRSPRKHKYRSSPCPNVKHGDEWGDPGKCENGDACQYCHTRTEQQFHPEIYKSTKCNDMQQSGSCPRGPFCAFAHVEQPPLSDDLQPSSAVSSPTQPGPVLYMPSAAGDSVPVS
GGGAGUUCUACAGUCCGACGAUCUGGCAGAUCUUUAAAACUUCAGCAACCAAAGGCACUGGCCUUGAUGAGGCAAUGGAAUGGUCCGUUGAAACCCUGAAAAGCAGACAGUGAGCCCAUUCACGUCAGCGCCUGUGAGCCAACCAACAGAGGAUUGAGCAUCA: 0.0932 ratio
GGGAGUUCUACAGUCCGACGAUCGCAUAAAUCCACCCCUGUUUGAAAUCUAUCAAGUCUUGUUAAGCCCAACACAACAUCAUGCCGCACUUAUAGGAAUAAAAGGACUUAUGGUAUUAGAAUUACCUAAAAGAUGGGGGAAGACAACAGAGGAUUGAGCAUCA: 0.672 ratio
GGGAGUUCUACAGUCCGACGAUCGCAAUAAUAUGUCAAUAAGUUACAUAAAGAUGCCCAUGUGACAGCACCCCCAAUCAGUGGCUCCGAGGGCUUAAAAAUGCUGUAUUUAUUUUUAAAACUUUGGCUUAAAGGCAUAAGAAGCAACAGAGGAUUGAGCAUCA: 0.336 ratio
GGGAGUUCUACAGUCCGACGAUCACCACUGGGACACUUCCACCACCAACUUUGUCUGCCUAUCAGCAUUCAUCUACCUUCCGCAACCGAAACUUUGCGACCACCUCACCUUUGGUGCUUCAAGAUUCAUCUUUUAACACUACACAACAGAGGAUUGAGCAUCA: 0.211 ratio
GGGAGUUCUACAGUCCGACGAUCUGUCUCCACUCAGUGACGUGGGAUUUUUUUGUCUUCCUUUUGGCUUUAUUUUUAAACUGCUUCCGAUAUUACUGCUCAGUGUUUGUGAACUUUCCUAGUUCUCUAUGUUGUUAGUGCAGCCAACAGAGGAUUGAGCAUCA: 0.994 ratio
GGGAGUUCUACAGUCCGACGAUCAAAAUUUAUUUCAUGCCCUGGACUCCCUAUCGUACCGAUACUUUAAUAGAAUAUGCUUCUUCCGAAGAUUUCCAAAAUAGUCGCCAAACAACAACAUAUAAACUUCCAAAUCGAGUAGAUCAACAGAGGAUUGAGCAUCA: 6.68 ratio
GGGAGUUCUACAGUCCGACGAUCCCUCGUACAAAUGGCAUGUGUUCAGUAUGCUAUAAAGAACAUCUUCAAAGACAGAACCGCCGUAAUGGUAGAAUAAGCCCACCUGCAACCUCUGUCAGUAGUCUGUCUGAAUCUUUACCACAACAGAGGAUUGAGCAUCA: 0.222 ratio
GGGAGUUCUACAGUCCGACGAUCAUCCAGGCAGCAGACAGCACAGCUGUGAAUGGCAGCAUUACACCCACAGACAAAAAGACCGGAUUUUUGGGCCUUGGCUUAAUGGGAAGUGGCAUCGUCUCCAACUUGCUAAAAAUGGGUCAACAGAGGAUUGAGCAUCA: 0.116 ratio

Mixed results — technique: protein-binding microarray; form: double-stranded DNA, one strand shown; sample: in vitro; tested at: not given; direction: higher = stronger binding
Setting: k-mer, scored over probes, only values ≥0.25
CAACGTA
E-score (Cyclic AMP-dependent transcription factor ATF-1 (ATF1, Homo sapiens, UniProt P18846, residues 1-271, full length assumed)): 0.301

ACGTGACC
E-score (Protein max, full length (MAX, Homo sapiens, UniProt P61244-2, residues 1-151)): 0.452

AATAAGG
E-score (TATA-box-binding protein 1 (TBP1, Arabidopsis thaliana, UniProt P28147, residues 1-200, full length assumed)): 0.27

ATTGTTA
E-score (Transcription factor SOX-2, HMG box (SOX2, Homo sapiens, UniProt P48431, residues 19-118)): 0.459

Some of these lines once more (series 5):
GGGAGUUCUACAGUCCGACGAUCGCAUAAAUCCACCCCUGUUUGAAAUCUAUCAAGUCUUGUUAAGCCCAACACAACAUCAUGCCGCACUUAUAGGAAUAAAAGGACUUAUGGUAUUAGAAUUACCUAAAAGAUGGGGGAAGACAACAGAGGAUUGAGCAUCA: 0.672 ratio
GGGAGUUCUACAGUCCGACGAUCGCAAUAAUAUGUCAAUAAGUUACAUAAAGAUGCCCAUGUGACAGCACCCCCAAUCAGUGGCUCCGAGGGCUUAAAAAUGCUGUAUUUAUUUUUAAAACUUUGGCUUAAAGGCAUAAGAAGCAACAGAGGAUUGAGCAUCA: 0.336 ratio
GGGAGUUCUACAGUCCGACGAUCACCACUGGGACACUUCCACCACCAACUUUGUCUGCCUAUCAGCAUUCAUCUACCUUCCGCAACCGAAACUUUGCGACCACCUCACCUUUGGUGCUUCAAGAUUCAUCUUUUAACACUACACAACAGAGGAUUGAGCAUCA: 0.211 ratio
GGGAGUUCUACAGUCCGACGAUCUGUCUCCACUCAGUGACGUGGGAUUUUUUUGUCUUCCUUUUGGCUUUAUUUUUAAACUGCUUCCGAUAUUACUGCUCAGUGUUUGUGAACUUUCCUAGUUCUCUAUGUUGUUAGUGCAGCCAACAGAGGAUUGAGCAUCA: 0.994 ratio
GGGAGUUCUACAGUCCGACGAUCAAAAUUUAUUUCAUGCCCUGGACUCCCUAUCGUACCGAUACUUUAAUAGAAUAUGCUUCUUCCGAAGAUUUCCAAAAUAGUCGCCAAACAACAACAUAUAAACUUCCAAAUCGAGUAGAUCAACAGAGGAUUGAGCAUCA: 6.68 ratio
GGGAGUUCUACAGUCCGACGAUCCCUCGUACAAAUGGCAUGUGUUCAGUAUGCUAUAAAGAACAUCUUCAAAGACAGAACCGCCGUAAUGGUAGAAUAAGCCCACCUGCAACCUCUGUCAGUAGUCUGUCUGAAUCUUUACCACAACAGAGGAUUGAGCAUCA: 0.222 ratio
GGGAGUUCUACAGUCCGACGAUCAUCCAGGCAGCAGACAGCACAGCUGUGAAUGGCAGCAUUACACCCACAGACAAAAAGACCGGAUUUUUGGGCCUUGGCUUAAUGGGAAGUGGCAUCGUCUCCAACUUGCUAAAAAUGGGUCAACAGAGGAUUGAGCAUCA: 0.116 ratio
